Published values pooled from the literature.
A part holds a random share of what one study measured.

Block 1
Target: RNA binding protein fox-1 homolog 2, RRM domain, GST-SBP tag (RBFOX2, Homo sapiens, UniProt O43251-10, residues 100-194)
Technique: RNA Bind-n-Seq
Form: RNA
Medium: in vitro
Concentration: 365 nM
Setting: natural RNA segment, single round, ends assumed
Baseline: no-protein control
Reading: higher = stronger binding
Constant ends, left off below: GGGAGUUCUACAGUCCGACGAUC … UGGAAUUCUCGGGUGCCAA
Construct (chain): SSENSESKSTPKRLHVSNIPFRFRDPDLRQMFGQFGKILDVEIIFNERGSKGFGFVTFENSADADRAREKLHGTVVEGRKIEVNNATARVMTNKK
Strand | RBNS enrichment (R)
AAGGUGGUUUGCAACAGUGCUUAGCUCGAGCCUCCAUAUUUCCAUAACUGUUAGCUUAAAACUGUGGGGUUUUACCUUCCUGGAACCAAAUGCAUUCUUCUGUUGAGGAG | 0.326
GGACCUAUGCAAUUACAUGGGCUCCAUAUCAAAUGGCAUGGUGUCUCUACUGCUGAUUCUCACCUUGCUGGAAUUAUGCGUAACCAUCUCUACCAUAGCCAUGUGGUGCA | 0.362
AAAAGUUAACCCAGUUGAGAUUUUUAAAAAGUUUUACAAAUACAUAUAACACUUAUGUGCUGGGCUUUCUUUUAAAUGCUUUCCAAGUGUUAACUUGUUUAGUCCCCUUU | 0.378
AGGGACAGUGAACACAUUUUGGUUCCUAUCCCAGUGGGUAAGAGGCACUUAUCUCUGGGAAAUUUGCCUCUCUUGGGACUCUCCCCCUCCCAGGCAUUUUCCAUUCCUGG | 0.281
UCAUACAGACUUUUAAUCCUCUACCACAUGCGAAUGCUGAACCCUCAGGAAGACCCACCUCUAUACCAUCUAGGAAGUGGGCACUGACUUUAAAGCGCUCCAGCCAACAG | 0.36

Block 2
Target: Ras GTPase-activating protein-binding protein 1, full length (G3BP1, Homo sapiens, UniProt Q13283)
Chain of UniProt Q13283 (whole entry, looked up): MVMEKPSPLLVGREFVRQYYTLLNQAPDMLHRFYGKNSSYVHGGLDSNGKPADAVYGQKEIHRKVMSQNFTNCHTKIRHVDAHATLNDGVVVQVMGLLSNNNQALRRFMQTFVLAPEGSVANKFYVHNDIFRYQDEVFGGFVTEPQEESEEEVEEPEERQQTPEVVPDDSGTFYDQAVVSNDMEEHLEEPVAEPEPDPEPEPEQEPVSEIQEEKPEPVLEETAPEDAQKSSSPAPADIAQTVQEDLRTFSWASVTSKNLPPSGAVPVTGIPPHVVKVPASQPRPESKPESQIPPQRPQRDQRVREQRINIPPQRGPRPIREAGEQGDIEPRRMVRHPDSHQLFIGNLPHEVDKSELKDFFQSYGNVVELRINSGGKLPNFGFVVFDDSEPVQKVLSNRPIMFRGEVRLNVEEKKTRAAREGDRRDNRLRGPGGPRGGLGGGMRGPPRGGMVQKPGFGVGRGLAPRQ
Technique: RNA Bind-n-Seq
Form: RNA
Medium: in vitro
Concentration: 200 nM
Setting: whole 134-nt RNA, ends assumed
With: 150 mM LiCl
Baseline: input library
Reading: higher = stronger binding
Each molecule: 7-deaza-guanosine replaces G
Constant ends, left off below: GGGAGUUCUACAGUCCGACGAUC … UGGAAUUCUCGGGUGUCAAGG
Strand | log2 enrichment
CCUGUGCUACACAUCGUAUGUACCGAAUCGGGGUUUUUGGGGAAAAAAAGGGGUUUGGGGAAAGUAUUAUGUUACGCCGUUCGGAUCUGC | -1.32
CCUGUGCUACACAUCGUAUGUACCGAAUCGGUUUUUUUGGGGUUUUUUUGGGUUUUUUUGGAAAGUAUUAUGUUACGCCGUUCGGAUCUG | 1.38
AAGUCCUGUGCUACACAUCGUAUGUACCGAAUCGGGAGGGUUUUUGGGAAAAAGGGAAAGUAUUAUGUUACGCCGUUCGGAUCUGCACUU | 0.267
UCCUCAAGUCCUGUGCUACACAUCGUAUGUACCGAAUCGGAGGAAAGGAGGAAAGUAUUAUGUUACGCCGUUCGGAUCUGCACUUCCAGC | -1.33
UUUCUUCUGCUGCUGCUAGUCAUGAGAUCAAGGUGGGUCUGAGAAUGGCCAUUCAGAGGCCCUGGAUAGUAACCAGGUAAUGGAUGACAC | -0.0274
CAAGUCCUGUGCUACACAUCGUAUGUACCGAAUCGGAAAGGUUUGGUUUUUUUGGAAAGUAUUAUGUUACGCCGUUCGGAUCUGCACUUC | -0.996
UAACUUUAGAGGAGGAUCUGAUGGAUAUGGCAGUGUACGUGGAUUUGGGGAUGGCUAUAAUGGGUAUGGAGGAGGACCUGGAGGUGGCAA | 0.0624

Block 3
Target: Histone acetyltransferase KAT6A, both winged helices, GST fusion (KAT6A, Homo sapiens, UniProt Q92794, residues 1-181)
Technique: protein binding microarray
Form: double-stranded DNA, one strand shown
Medium: in vitro
Concentration: not given
Setting: 8-mer, flanks averaged, mean of 2 arrays, mostly near background
Baseline: not given
Reading: higher = stronger binding
Target sequence (chain): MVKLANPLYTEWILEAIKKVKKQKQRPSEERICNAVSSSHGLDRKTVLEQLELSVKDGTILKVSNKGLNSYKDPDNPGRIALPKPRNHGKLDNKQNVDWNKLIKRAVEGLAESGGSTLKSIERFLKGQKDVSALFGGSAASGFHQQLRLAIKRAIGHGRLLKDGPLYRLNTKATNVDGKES
Strand | E-score
CTATTGTA | 0.0962
CTGGCCTC | -0.158
GAACCTAA | 0.0358
GCGCCGAA | 0.321

Other studies, line by line
Molecule | target | assay | test system | conditions | how to read | endpoint | value
PhoQ, residues 284 288 289 292 302 303 TGYLSA | PhoP, residues 12 14 15 18 19 TPWLV (Escherichia coli, UniProt P23836) | Sort-seq, measured: YFP reporter | E. coli | PhoQ-PhoP variant library, with: 10 µM Mg2+ | baseline: high Mg2+ state, higher = stronger signaling | fold induction | 15.6

A few entries again (block 3):
Strand | E-score
CTGGCCTC | -0.158
CTATTGTA | 0.0962
GCGCCGAA | 0.321
